Measurements of several laboratories.
Each line is one published result; not all experiments were run side by side. “And” joins repeats or separate records; there may be more than shown.
PRKG1: cGMP-dependent protein kinase 1 (PRKG1, Homo sapiens, UniProt Q13976)
UniProt Q13976, sequence (whole entry, looked up): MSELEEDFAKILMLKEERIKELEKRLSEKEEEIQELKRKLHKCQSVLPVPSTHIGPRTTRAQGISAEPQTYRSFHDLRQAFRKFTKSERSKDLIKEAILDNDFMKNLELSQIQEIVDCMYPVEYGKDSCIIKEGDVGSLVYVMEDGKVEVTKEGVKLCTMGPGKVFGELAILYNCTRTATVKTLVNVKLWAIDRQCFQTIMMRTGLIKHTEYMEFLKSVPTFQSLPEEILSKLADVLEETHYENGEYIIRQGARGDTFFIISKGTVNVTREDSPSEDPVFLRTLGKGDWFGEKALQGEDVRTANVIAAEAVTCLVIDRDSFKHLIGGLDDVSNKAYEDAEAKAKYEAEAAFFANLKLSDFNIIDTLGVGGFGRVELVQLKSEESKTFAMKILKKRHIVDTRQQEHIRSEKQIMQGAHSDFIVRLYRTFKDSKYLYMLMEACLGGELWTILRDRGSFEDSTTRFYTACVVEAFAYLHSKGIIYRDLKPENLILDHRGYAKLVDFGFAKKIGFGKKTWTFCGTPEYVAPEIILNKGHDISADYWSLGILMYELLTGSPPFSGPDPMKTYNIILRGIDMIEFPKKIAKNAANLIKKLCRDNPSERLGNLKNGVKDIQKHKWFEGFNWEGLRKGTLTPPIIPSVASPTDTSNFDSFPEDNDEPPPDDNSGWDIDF
PRKG1 isoform beta: cGMP-dependent protein kinase 1, isoform beta (PRKG1, Homo sapiens, UniProt Q13976)

Compound	target	assay	conditions	scale	measurement	result
CNC(=O)C1CCN(c2cc(C)c(F)cc2NC(=O)c2ccc(-c3cc(O)ccc3C)c(C)c2)CC1	PRKG1	binding, competition with immobilised ligand	1 µM		remaining binding	100%
COc1cc(Nc2nccc(-c3cnn4nc(OC)ccc34)n2)cc(C(F)(F)F)c1	PRKG1	binding, competition with immobilised ligand	1 µM		remaining binding	100%
C=CC(=O)N1CCc2ccc(-n3c(=O)ccc4cnc5ccc(-c6cnn(C)c6)cc5c43)cc21	PRKG1	KINOMEscan	1 µM	reference: DMSO control	remaining binding	88%
Cc1nc2c(F)cc(-c3nc(Nc4ccc(CNC(=O)CCCCCCC(=O)NO)cc4)ncc3F)cc2n1C(C)C	PRKG1 isoform beta	kinase activity	1 µM		inhibition	77%
O=C(O)CCC(=O)c1cccc(NS(=O)(=O)c2c[nH]c3ncccc23)c1	PRKG1	kinase activity, radiometric	10 µM		remaining activity	99%
COCC12C(=O)NC3C4(C(OC)CC1O)C1CC5(O)C(OC)C(O)C(OC(C)=O)(C1C5OC(=O)c1ccccc1)C3(O)C(OC)C24 (centres unmarked)	PRKG1	kinase activity, inhibitor, ProQinase kinase profiling	25 µM	reference: control	remaining activity	97% and 100%
NC(=O)[C@@H](O)C[C@H]1CCc2sc3ncnc(O[C@H]4CC[C@H](N5CCOCC5)CC4)c3c21	PRKG1 isoform beta	radioisotope kinase	10 µM		inhibition	0%
O=C=[N][Ru-4]123([n]4c5ccc(O)cc5c5c6c(c7cc(F)c[n+]1c7c54)C(=O)NC6=O)[S+]1CC[S+]2CC[S+]3CC1 (centres unmarked)	PRKG1 isoform beta	enzyme activity	100 nM, human enzyme, added: 10 µM ATP	reference: untreated	remaining activity	24%
Nc1ncc2c(n1)-c1c([nH]c3ccc(C4=CCOCC4)cc13)CCC2	PRKG1	binding, competition with immobilised ligand	1 µM		remaining binding	100%
NC(=O)C[C@H]1CCc2sc3ncnc(O[C@H]4CC[C@H](N5CCOCC5)CC4)c3c21	PRKG1 isoform beta	radioisotope kinase	10 µM		inhibition	-1%
COc1c(OCCCN2CCOCC2)ccc2c1N=C(NC(=O)c1cnc(N)nc1)N1CCN=C21	PRKG1	kinase activity, inhibitor	1 µM	reference: untreated control	remaining activity	108%
Cc1cccc(O[C@H]2CCC[C@@H](C(C)CNCc3ccncc3)C2)c1 (relative stereo)	PRKG1	enzyme activity, inhibitor	1 µM		inhibition	3%
Cc1c[nH]c2nccc(-c3ccc(C(=O)N[C@@H]4c5c(F)cc(C(F)F)cc5C[C@@H]4O)cn3)c12	PRKG1	binding, competition with immobilised ligand	3 µM		remaining binding	8.5%
CN1CCN(Cc2ccc(-c3ccc(CO[C@H]4CCC[C@@H]4NC(=O)c4cc(-c5cnn(C)c5)cnc4N)cc3)cc2)CC1	PRKG1	enzyme activity, inhibitor	0.1 µM		inhibition	7%
Nc1ncc(-c2cc(-c3cnn(CC(F)(F)F)c3)ncc2F)nc1C(=O)NC1CNCC(F)C1 (centres unmarked)	PRKG1	enzyme activity	1 µM	reference: DMSO control	remaining activity	108%
C=CC(=O)Nc1cccc(-c2cnc3[nH]cc(C(=O)NC(C)(C)C)c3n2)c1	PRKG1	enzyme activity, inhibitor	0.1 µM		inhibition	5%
CN1CC[C@@H](COc2cnc(C#N)cc2-c2ccn3nc(NC(=O)C4CC4)cc3c2)C1	PRKG1	enzyme activity, inhibitor	1 µM		inhibition	-8%
CCn1cc(C(=O)O)c(=O)c2c(N)c(F)c(NC3CCCCC3)cc21	PRKG1	kinase activity	0.1 µM, added: ATP at Km		inhibition	-2.7%
O=C(Cc1ccc(OCc2ccccc2)cc1)NC1(C(=O)O)CCN(C(=O)c2ccc(-c3cccc(Cl)c3)cc2)CC1	PRKG1	enzyme activity, inhibitor	10 µM		activity vs control	106%
COc1ccc(NC(=O)Nc2ccc3c(c2)C(=O)N(C(C)CO)CC(C)C(CN(C)Cc2ccc4c(c2)OCO4)O3)cc1 (centres unmarked)	PRKG1	kinase activity, KinaseProfiler	0.03 µM, species human	reference: control	remaining activity	95%

Repeated from above:
Compound	target	assay	conditions	scale	measurement	result
O=C=[N][Ru-4]123([n]4c5ccc(O)cc5c5c6c(c7cc(F)c[n+]1c7c54)C(=O)NC6=O)[S+]1CC[S+]2CC[S+]3CC1 (centres unmarked)	PRKG1 isoform beta	enzyme activity	100 nM, human enzyme, added: 10 µM ATP	reference: untreated	remaining activity	24%
Nc1ncc2c(n1)-c1c([nH]c3ccc(C4=CCOCC4)cc13)CCC2	PRKG1	binding, competition with immobilised ligand	1 µM		remaining binding	100%
